Published values pooled from the literature.
Lines come from different studies, so protocols differ. Values joined by “and” are separate records of one study, mostly repeats; a detail may differ.

SMILES	cell line	assay	conditions	measurement	value
CC1(C)CC(=O)C2=C(C1)Oc1ccccc1C2C1C(=O)NC(=O)NC1=O (stereo not drawn)	3T3-L1 preadipocytes	adipogenesis, Oil Red O staining	IC20, 14 days, single replicate	lipid content	0.785 OD492 and 0.821 OD492 and 0.874 OD492
CCCC(CCC)C(=O)OCc1cn(-c2cc3ccccc3oc2=O)nn1	HL-60(TB)	NCI60 single dose	10 µM	growth	95.8%
O=C(Nc1nnc2c1c(-c1ccc(Cl)cc1)nc1sc(=Cc3ccco3)c(=O)n12)c1ccccc1 (mixture of isomers)	HL-60(TB)		10 µM	growth percent	31.9%
C=C1C[C@@H]2[C@H](CC[C@]3(C)C(=O)CC[C@@H]23)[C@@]2(C)C=CC(=O)C=C12	HEK293-A GFP-LC3B	LC3B puncta formation	22 h, together with: chloroquine, torin1	IC50	> 20 µM
CC(C)(C)C(=O)OCOP(=O)(OCOC(=O)C(C)(C)C)C1CCCN(O)C1=O (stereo not drawn)	HL-60(TB)			Log10TGI	-5.45 log M
CN1C(=O)C(C2C3=C(CC(C)(C)CC3=O)Oc3ccc(Cl)cc32)C(=O)N(C)C1=O (stereo not drawn)	3T3-L1 preadipocytes	adipogenesis, Oil Red O staining	IC20, 14 days	mean lipid content	0.687 OD492
C1=[N+]2CCCC[N+]3=Cc4ccc5[n]4[Au-]23[n]2c1ccc2-c1nc2ccccc2nc1-5.F[P-](F)(F)(F)(F)F	HL-60(TB)	NCI60 five-dose screen		TGI	4.08 -log M
CN1C(=O)C(C2C3=C(CCCC3=O)Oc3ccc(Br)cc32)C(=O)N(C)C1=O (stereo not drawn)	3T3-L1 preadipocytes	adipogenesis, Oil Red O staining	IC20, 14 days, single replicate	lipid content	0.978 OD492 and 0.976 OD492 and 0.972 OD492
CN(C)CCN1CCN(c2ccc3nc(-c4ccc5nc(-c6ccc(C(F)(F)F)cc6)[nH]c5c4)[nH]c3c2)CC1	HL-60(TB)	cell growth	10 µM, 48 h	growth percent	59.6%

Some of these lines once more:
SMILES	cell line	assay	conditions	measurement	value
C=C1C[C@@H]2[C@H](CC[C@]3(C)C(=O)CC[C@@H]23)[C@@]2(C)C=CC(=O)C=C12	HEK293-A GFP-LC3B	LC3B puncta formation	22 h, together with: chloroquine, torin1	IC50	> 20 µM
